Measured values of several laboratories.
Compare with care: the assays were run in different laboratories. Values joined by “and” are separate records of one study, mostly repeats; a detail may differ.
Target: Glycogen synthase kinase-3 beta (GSK3B, Homo sapiens, UniProt P49841)
Sequence of UniProt P49841 (whole entry, looked up): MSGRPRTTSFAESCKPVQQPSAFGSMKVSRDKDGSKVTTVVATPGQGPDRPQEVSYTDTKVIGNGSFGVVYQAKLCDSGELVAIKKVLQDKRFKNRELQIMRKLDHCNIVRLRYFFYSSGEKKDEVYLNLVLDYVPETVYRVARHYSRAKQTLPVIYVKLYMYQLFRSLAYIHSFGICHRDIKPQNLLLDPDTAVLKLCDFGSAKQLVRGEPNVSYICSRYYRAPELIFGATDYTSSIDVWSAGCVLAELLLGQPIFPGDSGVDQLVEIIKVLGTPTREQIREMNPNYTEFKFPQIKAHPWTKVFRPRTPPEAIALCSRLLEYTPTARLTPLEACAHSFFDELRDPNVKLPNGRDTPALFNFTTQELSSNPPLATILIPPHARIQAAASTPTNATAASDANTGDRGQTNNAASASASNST

COc1c(OCCCN2CCOCC2)ccc2c1N=C(NC(=O)c1cnc(N)nc1)N1CCN=C21
remaining activity (kinase activity, inhibitor; 1 µM; relative to: untreated control): 112%

C=CC(=O)N1CCc2ccc(-n3c(=O)ccc4cnc5ccc(-c6cnn(C)c6)cc5c43)cc21
remaining binding (KINOMEscan; 1 µM; relative to: DMSO control): 100%

CN1CCN(Cc2ccc(-c3ccc(CO[C@H]4CCC[C@@H]4NC(=O)c4cc(-c5cnn(C)c5)cnc4N)cc3)cc2)CC1
inhibition (enzyme activity, inhibitor; 0.1 µM): 1%

NC(=O)[C@@H](O)C[C@H]1CCc2sc3ncnc(O[C@H]4CC[C@H](N5CCOCC5)CC4)c3c21
inhibition (enzyme activity, inhibitor; 10 µM): 0%

CN1CC[C@@H](COc2cnc(C#N)cc2-c2ccn3nc(NC(=O)C4CC4)cc3c2)C1
inhibition (enzyme activity, inhibitor; 1 µM): -11%

CNC1C[S+]2CC[S+]3CC[S+](C1)[Ru-4]321([N]=C=S)[n]2c3ccc(OC)cc3c3c4c(c5cc(F)c[n+]1c5c32)C(=O)NC4=O (stereo not shown)
remaining binding (KinomeScan; 0.1 µM; relative to: untreated): 99%

C[C@H]1CN(C(=O)c2cn(-c3ccnc(N)n3)c3cc(C#CC4(O)CCCCC4)ccc23)CCN1
inhibition (enzyme activity, inhibitor, FRET; 1 µM): 3%

O=c1c(-c2ccc(Cl)c(CN3CCOCC3)c2)coc2cc(O)ccc12
remaining activity (enzyme activity, inhibitor; 1 µM): 71%

CC(=O)N1c2ccc(-c3ccc(CNC(=O)c4cn5cc(-c6cnc(N)nc6)nc(N6CCOCC6)c5n4)cc3)cc2CC[C@@H]1C
remaining binding (binding, competition with immobilised ligand; 10 µM): 88%

C=CC(=O)N1CCCC(n2c(=O)c3ncccc3n(Cc3ccc(Oc4ccccc4)cc3)c2=O)C1 (stereo not shown)
remaining binding (cell-free assay, competition with immobilised ligand; 1 µM): 73%

Cc1cccc(O[C@H]2CCC[C@@H](C(C)CNCc3ccncc3)C2)c1 (relative stereo)
inhibition (enzyme activity, inhibitor; 1 µM): -9%

Cc1cccc(-c2ccc3nc(NC(=O)C4CCCO4)nn3c2)c1 (stereo not shown)
remaining activity (enzyme activity, Dundee kinase panel; 10 µM): 70%

C=C1CCCCCCCCCC(CO)C1=O (stereo not shown)
remaining signal (cell-free assay; 10 µM): 100%

c1ccc2c(Nc3cc(C4CCC4)[nH]n3)nc(Nc3ccc4nc[nH]c4c3)nc2c1
remaining activity (enzyme activity, inhibitor; 0.25 µM): 16%

CNS(=O)(=O)Nc1nccc(Cc2c(C)c3ccc(Oc4ncccc4F)cc3oc2=O)c1F
remaining binding (cell-free assay, competition with immobilised ligand; 10 µM): 94%

Cc1ccc(-c2c(/C=C(\C#N)C(=O)NC(C)C)n(CCCO)c3ncnc(N)c23)cc1
remaining binding (cell-free assay, competition with immobilised ligand; 1 µM): 100%

Cc1cnc2nc1Nc1cccc(c1)COC/C=C/COCc1cc(ccc1OCCN1CCOCC1)N2
remaining binding (binding; 0.1 µM): 92%

COc1cc(Nc2nccc(-c3cnn4nc(OC)ccc34)n2)cc(C(F)(F)F)c1
remaining binding (binding; 1 µM): 100%

COc1ccc(NC(=O)Nc2ccc3c(c2)C(=O)N(C(C)CO)CC(C)C(CN(C)Cc2ccc4c(c2)OCO4)O3)cc1 (stereo not shown)
remaining activity (kinase activity, KinaseProfiler; 0.03 µM, species human; relative to: control): 101%

C=CC(=O)Nc1cccc(-c2cnc3[nH]cc(C(=O)NC(C)(C)C)c3n2)c1
inhibition (kinase activity; 0.1 µM): 64% and 59%

Cc1ccc(C)c(-c2ccc3nc(NC(=O)C4CCCCC4)nn3c2)c1
remaining activity (enzyme activity, Dundee kinase panel; 10 µM): 78%

Nc1ncc(-c2cc(-c3cnn(CC(F)(F)F)c3)ncc2F)nc1C(=O)NC1CNCC(F)C1 (stereo not shown)
remaining activity (enzyme activity; 1 µM; relative to: DMSO control): 73.8%

C=CC(=O)Nc1cc(-c2nn(C3CCN(CCNC(=O)[C@H](C)CCC45CC6CC(CC(C6)C4)C5)CC3)c3ncnc(N)c23)ccc1Oc1ccccc1
inhibition (inhibitor, KiNativ profiling; biochemical; 2 µM): 20.5%

Nc1nc(Nc2ccccc2)sc1C(=O)c1ccccc1
remaining activity (enzyme activity, inhibitor; 10 µM): 0%

CN1CCN(Cc2ccc(NC(=O)c3cccc(C#Cc4cnc(N)c5ncccc45)c3)cc2C(F)(F)F)CC1
remaining binding (cell-free assay, competition with immobilised ligand; 50 nM): 69%
